# Assay results of several laboratories.
# Lines come from different studies, so protocols differ. ± gives the spread as reported.
SMILES,test,system,conditions,AUC(0-inf)
NS(=O)(=O)OC[C@@H]1C[C@@H](n2ccc3c(N[C@H]4CCc5ccccc54)ncnc32)C[C@@H]1O,,human,"intravenous, 15 mg/m^2 single dose, day 8, together with: itraconazole",1.06 µg·h/mL
C=CC(=O)Nc1cc(Nc2ncc(C(=O)OC(C)C)c(-c3cn(C)c4ccccc34)n2)c(OC)cc1N(C)CCN(C)C,,"human, fasted","oral, 40 mg single dose, arithmetic mean",0.186 µg·h/mL
CC(C)(Sc1ccncc1-c1ccc(C#N)c2ccccc12)C(=O)O,,"humans, male, normal renal function, fasted, plasma","oral, 15 mg",0.162 µg·h/mL
C=CC(=O)N1CCC(CNc2ncnc(N)c2-c2ccc(Oc3ccccc3)cc2)CC1,,"human, plasma","50 mg, single dose, geometric mean",0.326 µg·h/mL
COCCCCn1c(C(=O)N(CC(C)C)[C@@H]2CNC[C@H](C(=O)N3CCOCC3)C2)nc2ccccc21,,"human, non-elderly, plasma","oral, 80 mg, multiple doses, day 1, mean",4.22 µg·h/mL
O=c1[nH]c(=O)c(Cc2cccc(C(F)(F)F)c2)c([C@H]2CC[C@H](c3ccccc3)CC2)[nH]1,,"human, fasted, plasma","oral, 1500 mg single dose, geometric mean",9.68 µg·h/mL
Cc1ccc(NC(=O)c2ccc(CN3CCNCC3)cc2)cc1Nc1nccc(-c2cccnc2)n1,,"human patients, plasma","oral, 400 mg/day of imatinib, day 10 of cycle 1",23.8 µg·h/mL
COC(=O)N[C@H](C(=O)N1CCC[C@H]1c1nc(-c2ccc3c(c2)O[C@@H](c2ccccc2)n2c-3cc3cc(-c4c[nH]c([C@@H]5CCCN5C(=O)[C@@H](NC(=O)OC)C(C)C)n4)ccc32)c[nH]1)C(C)C,,"healthy adult humans, plasma","oral, 50 mg single dose, geometric mean, fasted, together with: grazoprevir 100 mg fixed-dose combination",2.75 µM·h
Cc1c(Cl)c(C)[n+]([O-])c(Cl)c1-c1noc(-c2cc(O)c(O)c([N+](=O)[O-])c2)n1,LC-MS/MS,"healthy male human, fasted, plasma","oral, 25 mg single dose, capsule",2.15 ± 0.617 µg·h/mL
CCOc1cc([C@@H](CS(C)(=O)=O)N2C(=O)c3cccc(NC(C)=O)c3C2=O)ccc1O[C@@H]1O[C@H](C(=O)O)[C@@H](O)[C@H](O)[C@H]1O,,"healthy human controls, plasma","oral, 30 mg apremilast, matched to severe impairment",4.82 µg·h/mL
CNC(=O)c1c(C)oc2cc(Oc3ncnc4cc(OC)c(OC)cc34)ccc12,,"human, plasma","oral, 5 mg, fasted, together with: rabeprazole 40 mg",5.52 µg·h/mL
CCCCc1nc2cc(/C=C/C(=O)NO)ccc2n1CCN(CC)CC,LC-MS/MS,"human, plasma","oral, 40 mg, day 1",0.434 ± 0.191 µg·h/mL
CCn1c(=O)c2c(nc(/C=C/c3ccc(OC)c(OC)c3)n2C)n(CC)c1=O,,"healthy human, plasma","oral, 40 mg single dose, arithmetic mean, together with: rifampin 600 mg/day steady state",2.1 µg·h/mL
CCN1CCN(Cc2ccc(Nc3ncc(F)c(-c4cc(F)c5nc(C)n(C(C)C)c5c4)n3)nc2)CC1,,"human patients, plasma","oral, 150 mg single, geometric mean",2.96 µg·h/mL
CCn1c(C(=O)c2cc(C)cc(C#N)c2)c(C(C)C)c(=O)[nH]c1=O,,"healthy humans, plasma","oral, 75 to 600 mg single dose, range of dose-group means",11.1 to 33.7 µg·h/mL
CC(C)c1nc(N(C)S(C)(=O)=O)nc(-c2ccc(F)cc2)c1/C=C/[C@@H](O)C[C@@H](O)CC(=O)O,,"human, plasma","oral, 20 mg, alone, geometric LS mean",0.0495 µg·h/mL
Cc1[nH]c2ccccc2c1CCNCc1ccc(/C=C/C(=O)NO)cc1,,"human, plasma","oral, 20 mg, fed, normal breakfast",0.153 µg·h/mL
CN(C)Cc1c(C(=O)NCCOc2ccc(C(=O)NO)cc2)oc2ccccc12,,"human, plasma","oral, 40 mg single dose",0.171 ± 0.0127 µg·h/mL
CCOc1c([C@H](C)n2nc(C)c3c(N)ncnc32)cc(Cl)c(F)c1[C@@H]1CNC(=O)C1,,"healthy human, fasted","oral, 10 mg single dose",7.5 ± 0.787 µM·h
Cc1ccc(C(=O)NC2CC2)cc1-n1ncc(C(=O)c2cccc(C#N)c2)c1N,,"human, plasma","oral, 14 mg, geometric mean, together with: azithromycin 500 mg daily for three days",6.21 µg·h/mL
CC(C)[C@@H](CS(=O)(=O)C(C)C)N1C(=O)[C@@](C)(CC(=O)O)C[C@H](c2cccc(Cl)c2)[C@H]1c1ccc(Cl)cc1,,"human, plasma","oral, 60 mg, new tablet, fed, geometric LS mean",2.44 µg·h/mL
NC1(c2ccc(-c3nc4ccn5c(=O)[nH]nc5c4cc3-c3ccccc3)cc2)CCC1,,"human patients, plasma","oral, 90 mg, expansion, dose reduced, together with: dinaciclib 9 mg/m^2",6.24 µg·h/mL
CC(C)(/C=C(\C#N)C(=O)N1CCC[C@@H](n2nc(-c3ccc(Oc4ccccc4)cc3F)c3c(N)ncnc32)C1)N1CCN(C2COC2)CC1,,"human, plasma","oral, 100 mg single dose, mean",0.066 µg·h/mL
CC(=O)O[C@H]1C(=O)[C@@]2(C)[C@H]([C@H](OC(=O)c3ccccc3)[C@]3(O)C[C@H](OC(=O)[C@H](O)[C@@H](NC(=O)c4ccccc4)c4ccccc4)C(C)=C1C3(C)C)[C@]1(OC(C)=O)CO[C@@H]1C[C@@H]2O,non-compartmental,"human patients, plasma","intravenous, 200 mg/m^2, together with: lenvatinib 6 mg twice daily",22.1 ± 5.26 µg·h/mL
CCCC[C@H](NC(C)=O)C(=O)N[C@H]1CCC(=O)NC[C@@H](C(=O)N[C@@H](Cc2c[nH]c3ccccc23)C(N)=O)NC(=O)[C@H](CCCNC(=N)N)NC(=O)[C@@H](Cc2ccccc2)NC(=O)[C@H](Cc2c[nH]cn2)NC1=O,,"healthy human volunteers, plasma","subcutaneous, 3.0 mg once daily, day 1",0.172 µg·h/mL
O=C1Nc2ccc(Cl)cc2[C@@](C#CC2CC2)(C(F)(F)F)O1,,"healthy human, serum","oral, 400 mg single dose, together with: ezetimibe 10 mg",29.7 ± 15.4 µg·h/mL
CCS(=O)(=O)N1CC(CC#N)(n2cc(-c3ncnc4[nH]ccc34)cn2)C1,,"healthy Chinese human subjects, plasma","oral, 10 mg, single dose, mean",0.78 µg·h/mL
C/C(=C\c1csc(C)n1)[C@@H]1C[C@@H]2O[C@]2(C)CCC[C@H](C)[C@H](O)[C@@H](C)C(=O)C(C)(C)[C@@H](O)CC(=O)N1,LC-MS/MS,"human patients, plasma","intravenous, 70 mg",2.89 µg·h/mL
CCN(CC)CCNC(=O)c1c(C)[nH]c(/C=C2\C(=O)Nc3ccc(F)cc32)c1C,,"human, normal hepatic function (Child-Pugh), plasma","single dose, geometric mean, total drug",1.37 µg·h/mL
C=C(C)[C@@H]1CC[C@]2(NCCN3CCS(=O)(=O)CC3)CC[C@]3(C)[C@H](CC[C@@H]4[C@@]5(C)CC=C(C6=CC[C@@](CF)(C(=O)O)CC6)C(C)(C)[C@@H]5CC[C@]43C)[C@@H]12,,healthy human volunteers,"oral, 200 mg, capsule, moderate-fat meal, arithmetic mean",39.6 µg·h/mL
CC(C)NC[C@@H](C(=O)N1CCN(c2ncnc3c2[C@H](C)C[C@H]3O)CC1)c1ccc(Cl)cc1,,"human, hepatic impairment Healthy (Child-Pugh), plasma","oral, 100 mg single, geometric mean",0.318 µg·h/mL
CCOc1cc([C@@H](CS(C)(=O)=O)N2C(=O)c3cccc(NC(C)=O)c3C2=O)ccc1OC,,"healthy human, male, plasma","oral, 20 mg single dose, without ketoconazole",2.07 µg·h/mL
Cn1cnc2c(F)c(Nc3ccc(Br)cc3Cl)c(C(=O)NOCCO)cc21,,"human cancer patients, plasma","oral, 75 mg, cycle 1 day 1",5.2 µg·h/mL
CC[C@H](C)[C@H](NC(=O)[C@H](Cc1ccccc1)NC(=O)[C@H](CCC(=O)O)NC(=O)[C@H](CCCCNC(=O)COCCOCCNC(=O)COCCOCCNC(=O)CC[C@H](NC(=O)CCCCCCCCCCCCCCCCC(=O)O)C(=O)O)NC(=O)[C@H](C)NC(=O)[C@H](C)NC(=O)[C@H](CCC(N)=O)NC(=O)CNC(=O)[C@H](CCC(=O)O)NC(=O)[C@H](CC(C)C)NC(=O)[C@H](Cc1ccc(O)cc1)NC(=O)[C@H](CO)NC(=O)[C@H](CO)NC(=O)[C@@H](NC(=O)[C@H](CC(=O)O)NC(=O)[C@H](CO)NC(=O)[C@@H](NC(=O)[C@H](Cc1ccccc1)NC(=O)[C@@H](NC(=O)CNC(=O)[C@H](CCC(=O)O)NC(=O)C(C)(C)NC(=O)[C@@H](N)Cc1cnc[nH]1)[C@@H](C)O)[C@@H](C)O)C(C)C)C(=O)N[C@@H](C)C(=O)N[C@@H](Cc1c[nH]c2ccccc12)C(=O)N[C@@H](CC(C)C)C(=O)N[C@H](C(=O)N[C@@H](CCCNC(=N)N)C(=O)NCC(=O)N[C@@H](CCCNC(=N)N)C(=O)NCC(=O)O)C(C)C,,"human, normal hepatic function, plasma","subcutaneous, 0.5 mg single dose",3.03 µM·h
CNC(=O)c1ccc(-c2cnc3ncc(Cc4ccc5ncccc5c4)n3n2)cc1F,,"healthy human subjects, plasma","oral, 200 mg, adjusted geometric mean, alone",5.18 µg·h/mL
Cc1c(O)ccc2c1OC[C@@H](c1ccc(O)cc1)[C@H]2c1ccc(O)cc1,,"human patients, plasma","intravenous, 10 mg/kg, 30 min infusion, cycle 1, mean, together with: topotecan",22 µg·h/mL
CO[C@H]1C[C@@H]2CC[C@@H](C)[C@@](O)(O2)C(=O)C(=O)N2CCCC[C@H]2C(=O)O[C@H]([C@H](C)C[C@@H]2CC[C@@H](O)[C@H](OC)C2)CC(=O)[C@H](C)/C=C(\C)[C@@H](O)[C@@H](OC)C(=O)[C@H](C)C[C@H](C)/C=C/C=C/C=C/1C,,"healthy human subjects, whole blood","oral, 2 mg single dose, arithmetic mean, together with: isavuconazole 200 mg once daily after loading",0.346 µg·h/mL
CN[C@@H]1COc2c(S(=O)(=O)NC(=O)Nc3c4c(cc5c3CCC5)CCC4)cnn2C1,,human,"oral, 600 mg, high-fat meal, mean",150 µg·h/mL
CN(Cc1cnc2nc(N)nc(N)c2n1)c1ccc(C(=O)N[C@@H](CCC(=O)O)C(=O)O)cc1,,"human, plasma","oral, 10 mg, together with: apremilast 30 mg twice daily",1.3 µg·h/mL
CO[C@H]1C[C@@H]2CC[C@@H](C)[C@@](O)(O2)C(=O)C(=O)N2CCCC[C@H]2C(=O)O[C@H]([C@H](C)C[C@@H]2CC[C@@H](O)[C@H](OC)C2)CC(=O)[C@H](C)/C=C(\C)[C@@H](O)[C@@H](OC)C(=O)[C@H](C)C[C@H](C)/C=C/C=C/C=C/1C,,"human, whole blood","oral, 15 mg, without grapefruit juice",0.858 µg·h/mL
Cc1ccc(NC(=O)c2ccc(CN3CCN(C)CC3)cc2)cc1Nc1nccc(-c2cncc(-c3oncc3C)c2)n1,,"older healthy human adults, plasma","oral, 100 mg single dose, fed, mean",115 µg·h/mL
CN(CCOc1ccc(CC2SC(=O)NC2=O)cc1)c1ccccn1 (stereo not shown),,"human, both sexes, plasma","oral, 4 mg, single dose alone, day 1, geometric mean",1460 µg·h/mL
O=C(/C=C/c1cccc(S(=O)(=O)Nc2ccccc2)c1)NO[C@@H]1O[C@H](C(=O)O)[C@@H](O)[C@H](O)[C@H]1O,,"human severe liver dysfunction, plasma","intravenous, 400 mg/m^2, 30 min infusion, cycle 1 day -7, together with: belinostat 400 mg/m^2 iv",390 µg·h/mL

# For quick reference, copied from above:
SMILES,test,system,conditions,AUC(0-inf)
CNC(=O)c1ccc(-c2cnc3ncc(Cc4ccc5ncccc5c4)n3n2)cc1F,,"healthy human subjects, plasma","oral, 200 mg, adjusted geometric mean, alone",5.18 µg·h/mL
CNC(=O)c1c(C)oc2cc(Oc3ncnc4cc(OC)c(OC)cc34)ccc12,,"human, plasma","oral, 5 mg, fasted, together with: rabeprazole 40 mg",5.52 µg·h/mL
NC1(c2ccc(-c3nc4ccn5c(=O)[nH]nc5c4cc3-c3ccccc3)cc2)CCC1,,"human patients, plasma","oral, 90 mg, expansion, dose reduced, together with: dinaciclib 9 mg/m^2",6.24 µg·h/mL
CCOc1c([C@H](C)n2nc(C)c3c(N)ncnc32)cc(Cl)c(F)c1[C@@H]1CNC(=O)C1,,"healthy human, fasted","oral, 10 mg single dose",7.5 ± 0.787 µM·h
Cc1[nH]c2ccccc2c1CCNCc1ccc(/C=C/C(=O)NO)cc1,,"human, plasma","oral, 20 mg, fed, normal breakfast",0.153 µg·h/mL
CC(=O)O[C@H]1C(=O)[C@@]2(C)[C@H]([C@H](OC(=O)c3ccccc3)[C@]3(O)C[C@H](OC(=O)[C@H](O)[C@@H](NC(=O)c4ccccc4)c4ccccc4)C(C)=C1C3(C)C)[C@]1(OC(C)=O)CO[C@@H]1C[C@@H]2O,non-compartmental,"human patients, plasma","intravenous, 200 mg/m^2, together with: lenvatinib 6 mg twice daily",22.1 ± 5.26 µg·h/mL
